{"data": "Measured values of several laboratories", "cell line": "T47D", "note": "Protocols differ between the studies behind these lines. “And” joins repeats or separate records; there may be more than shown. ± gives the spread as reported."}
{"Compound": "O=c1ccn(Cc2cn(-c3cc4ccccc4oc3=O)nn2)c(=O)[nH]1", "test": "NCI60 single-dose screen", "conditions": "10 µM", "endpoint": "growth percentage", "result": "97%"}
{"Compound": "O=C(Nc1nnc2n3c(Cc4ccccc4)n[nH]c3nc(-c3ccc(Cl)cc3)c1-2)c1ccccc1", "test": "SRB", "conditions": "10 µM, NCI60 single-dose screen", "scale": "reference: untreated", "endpoint": "cell growth", "result": "100%"}
{"Compound": "C[C@H](Nc1ccc2c(c1)OCCn1cc(N3C(=O)OC[C@H]3C(F)F)nc1-2)C(N)=O", "test": "FOXO1 translocation, kinase translocation reporter", "conditions": "2 h", "endpoint": "IC50", "result": "44.9 nM"}
{"Compound": "CCCN1CCN(c2ccc3[nH]c(-c4ccc5[nH]c(-c6ccc(OCC)c(OCC)c6)nc5c4)nc3c2)CC1", "test": "SRB", "conditions": "10 µM, 48 h", "endpoint": "growth percent", "result": "10.7%"}
{"Compound": "CC(C)[C@H](NC(=O)c1cc(Cl)ccc1OCCNC(=O)OC(C)(C)C)C(=O)Nc1ccc([N+](=O)[O-])cc1Cl", "conditions": "0.1 to 10 µM, 2 weeks", "endpoint": "colony formation", "result": "inhibited"}
{"Compound": "C=CC(=O)N1CCC(COCC(=O)N2CCN(c3nc(-c4cnc(N)nc4C(F)F)nc(N4CCOC[C@@H]4C)n3)CC2)CC1", "test": "Akt phosphorylation, inhibitor, in-cell western, measured: Akt pSer473", "conditions": "2 h", "endpoint": "IC50", "result": "11.1 nM"}
{"Compound": "C[C@H](Nc1ccc2c(c1)OCCn1cc(N3C(=O)OC[C@H]3C(F)F)nc1-2)C(N)=O", "test": "CellTiter-Glo", "conditions": "120 h", "endpoint": "Hill coefficient", "result": 1.02}
{"Compound": "CCCCN1CCN(c2ccc3nc(-c4ccc5nc(-c6cc(OC)ccc6OC)[nH]c5c4)[nH]c3c2)CC1", "test": "SRB", "conditions": "10 µM, 48 h", "endpoint": "growth percent", "result": "92.6%"}
{"Compound": "CCN(CC)c1ccc(C=NNC(=O)CSc2nc3ccccc3c(=O)n2Cc2ccc(S(N)(=O)=O)cc2)c(O)c1", "test": "NCI five-dose screen", "endpoint": "TGI", "result": "> 100000 nM"}
{"Compound": "COC(=O)c1cc(C(C)=NNc2nc(-c3ccc4c(c3)OCCCO4)cs2)ccc1O", "test": "annexin V/PI flow cytometry", "conditions": "40 µM, 72 h", "endpoint": "apoptotic cells", "result": "23.2 ± 2.09%"}
{"Compound": "NNc1nc(-c2ccc(Cl)cc2)c2c(NC(=O)c3ccccc3)nnc-2[nH]1", "test": "SRB", "conditions": "10 µM, NCI60 single-dose screen", "scale": "reference: untreated", "endpoint": "cell growth", "result": "97.2%"}
{"Compound": "C#C[C@@]1(O)[C@@H](CO)O[C@@H](n2cc(Cl)c3c(N)ncnc32)[C@@H]1O", "test": "SRB", "conditions": "NCI-60 screen", "endpoint": "TGI", "result": "559 nM and 428 nM"}
{"Compound": "O=C(Cc1ccccc1)Nc1nnc(CCSCCc2nnc(NC(=O)Cc3ccccc3)s2)s1", "test": "cell proliferation, inhibitor, cell counting", "conditions": "144 h", "endpoint": "EC50", "result": "~20000 nM"}
{"Compound": "CCCCN1CCN(c2ccc3[nH]c(-c4ccc5[nH]c(-c6ccc(OCC)c(OCC)c6)nc5c4)nc3c2)CC1", "test": "SRB", "conditions": "10 µM, 48 h", "endpoint": "growth percent", "result": "39.9%"}
{"Compound": "C#C[C@@]1(O)[C@@H](CO)O[C@@H](n2ccc3c(N)ncnc32)[C@@H]1O", "test": "SRB", "conditions": "NCI-60 screen", "endpoint": "TGI", "result": "2140 nM"}
{"Compound": "Cn1cncc1C1=CN(c2ncnc3[nH]cnc23)CCS1", "endpoint": "TGI", "result": "129000 nM"}
{"Compound": "Cc1cc(=O)[nH]c(=O)n1Cc1cn(-c2cc3ccccc3oc2=O)nn1", "test": "NCI60 single-dose screen", "conditions": "10 µM", "endpoint": "growth percentage", "result": "97.2%"}
{"Compound": "CCCN1CCN(c2ccc3[nH]c(-c4ccc5[nH]c(-c6ccc(C(F)(F)F)cc6)nc5c4)nc3c2)CC1", "test": "SRB", "conditions": "10 µM, 48 h", "endpoint": "growth percent", "result": "48%"}
{"Compound": "[NH2][Pt]([NH2])([Cl])[Cl]", "test": "cell growth, sulforhodamine B", "endpoint": "GI50", "result": "17000 ± 3000 nM"}
{"Compound": "S=C([S][Au-][P+](CCCCCC[P+]([Au-][S]C(=S)n1cccn1)(c1ccccc1)c1ccccc1)(c1ccccc1)c1ccccc1)n1cccn1", "test": "cell growth, NCI-60 screen", "conditions": "breast cancer", "endpoint": "log10 TGI", "result": -4.21}
{"Compound": "CCCCN1CCN(c2ccc3[nH]c(-c4ccc5[nH]c(-c6cc(OC)c(OC)c(OC)c6)nc5c4)nc3c2)CC1", "test": "SRB", "conditions": "10 µM, 48 h", "endpoint": "growth percent", "result": "66%"}
{"Compound": "O=C(Nc1nnc2n3c(=S)[nH][nH]c3nc(-c3ccc(Cl)cc3)c1-2)c1ccccc1", "test": "SRB", "conditions": "10 µM, NCI60 single-dose screen", "scale": "reference: untreated", "endpoint": "cell growth", "result": "89.6%"}
{"Compound": "CCC(=O)N1CCC(COCC(=O)N2CCN(c3nc(-c4cnc(N)nc4C(F)F)nc(N4CCOC[C@@H]4C)n3)CC2)CC1", "test": "cell growth", "conditions": "72 h", "endpoint": "GR50", "result": "33.9 nM"}
{"Compound": "O=C1NC(=NCc2cccs2)S/C1=C\\c1ccc2ncccc2c1", "test": "MTS", "conditions": "NCI60 panel", "endpoint": "IC50", "result": "6190 nM"}
{"Compound": "COc1ccc(OC)c(-c2nc3ccc(-c4nc5ccc(N6CCN(C)CC6)cc5[nH]4)cc3[nH]2)c1", "test": "SRB", "conditions": "10 µM, 48 h", "endpoint": "growth percent", "result": "95.2%"}
{"Compound": "CCOC(=O)CSc1nc(-c2ccc(Cl)cc2)c2c(NC(=O)c3ccccc3)nnc-2[nH]1", "test": "SRB", "conditions": "10 µM, NCI60 single-dose screen", "scale": "reference: untreated", "endpoint": "cell growth", "result": "89.2%"}
{"Compound": "Cc1nc(NC(=O)N2CCC[C@H]2C(N)=O)sc1-c1ccnc(C(C)(C)C(F)(F)F)c1", "test": "FOXO1 translocation, kinase translocation reporter", "conditions": "2 h", "endpoint": "IC50", "result": "249 nM"}
{"Compound": "O=C1NC(c2ccccc2)(c2ccccc2)C(=O)N1Cc1cn(-c2cc3ccccc3oc2=O)nn1", "test": "NCI60 single-dose screen", "conditions": "10 µM", "endpoint": "growth percentage", "result": "95.2%"}
{"Compound": "Cc1cc(-c2ccccc2)n(-c2nc(-c3ccc(Cl)cc3)c3c(NC(=O)c4ccccc4)nnc-3[nH]2)n1", "test": "SRB", "conditions": "10 µM, NCI60 single-dose screen", "scale": "reference: untreated", "endpoint": "cell growth", "result": "84.3%"}
{"note": "Repeated from above:"}
{"Compound": "S=C([S][Au-][P+](CCCCCC[P+]([Au-][S]C(=S)n1cccn1)(c1ccccc1)c1ccccc1)(c1ccccc1)c1ccccc1)n1cccn1", "test": "cell growth, NCI-60 screen", "conditions": "breast cancer", "endpoint": "log10 TGI", "result": -4.21}
{"Compound": "O=C1NC(=NCc2cccs2)S/C1=C\\c1ccc2ncccc2c1", "test": "MTS", "conditions": "NCI60 panel", "endpoint": "IC50", "result": "6190 nM"}
{"Compound": "O=c1ccn(Cc2cn(-c3cc4ccccc4oc3=O)nn2)c(=O)[nH]1", "test": "NCI60 single-dose screen", "conditions": "10 µM", "endpoint": "growth percentage", "result": "97%"}
{"Compound": "Cc1nc(NC(=O)N2CCC[C@H]2C(N)=O)sc1-c1ccnc(C(C)(C)C(F)(F)F)c1", "test": "FOXO1 translocation, kinase translocation reporter", "conditions": "2 h", "endpoint": "IC50", "result": "249 nM"}
